Results gathered from unrelated publications.
Each numbered part is a random draw from the data of one study; scales do not carry over between parts.

Series 1
Target: Histone acetyltransferase KAT6A, winged helix 2, GST fusion (KAT6A, Homo sapiens, UniProt Q92794, residues 85-181)
Method: protein binding microarray
Form: double-stranded DNA, one strand shown
Sample: in vitro
Tested at: not given
Notes: 8-mer, flanks averaged, mean of 2 arrays, mostly near background
Reference: not given
Direction: higher = stronger binding
Construct (chain): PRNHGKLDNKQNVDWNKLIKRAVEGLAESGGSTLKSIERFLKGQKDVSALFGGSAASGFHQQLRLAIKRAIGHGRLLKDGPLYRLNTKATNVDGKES
Sequence | E-score
GTCTACGA | -0.209
GCTCCAAC | 0.106
CTAACGGC | 0.0725
GAGACCAA | -0.00965
AGGTCTAA | -0.023

Series 2
Target: human cyclin B2
Read-out: peptide binding
Method: yeast competitive growth sequencing
Form: peptide
Organism: Saccharomyces cerevisiae
Strain: cyclin B2-Cln2 fusion
Tested at: concentration not given
Notes: peptide tiling library
Direction: direction not given
Sequence | binding enrichment score
VKTKKRLNFDDK | 0.132
LAKRALKYTD | 0.565
HRRRLLFACSPPPASQ | -0.487
TSSAQRRLEIPSGGAD | 0.0934
KVKRRLDLDIDGLQKE | 1.22

Mixed results
UNK zinc fingers 1-6, GST-SBP tag: RING finger protein unkempt homolog, zinc fingers 1-6, GST-SBP tag (UNK, Homo sapiens, UniProt Q9C0B0, residues 30-357)
UniProt Q9C0B0, sequence (30-357, looked up): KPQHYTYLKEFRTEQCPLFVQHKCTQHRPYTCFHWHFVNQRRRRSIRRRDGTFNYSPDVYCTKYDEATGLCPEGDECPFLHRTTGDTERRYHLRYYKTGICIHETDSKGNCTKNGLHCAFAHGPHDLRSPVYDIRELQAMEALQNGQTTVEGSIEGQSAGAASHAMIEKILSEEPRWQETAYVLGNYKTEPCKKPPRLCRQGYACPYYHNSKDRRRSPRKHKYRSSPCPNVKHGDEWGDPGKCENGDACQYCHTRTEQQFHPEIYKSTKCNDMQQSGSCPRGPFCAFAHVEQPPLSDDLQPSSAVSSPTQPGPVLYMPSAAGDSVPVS
Substance | target | assay | test system | setting | how to read | endpoint | result
GGGAGUUCUACAGUCCGACGAUCGUGCACACUGGUGAGCGACCACACCAGUGCCCAGAGUGCGGGAAGCGUUUCACCAACAAGCCCUACCUGACCUCGCACCGGCGCAUACAUACCGGCGAGAAGCCCUACCCAUGCACCGAGCAACAGAGGAUUGAGCAUCA | UNK zinc fingers 1-6, GST-SBP tag | RNA Bind-n-Seq | RNA, in vitro | not given, RNA with constant flanks, human and mouse sites, ends assumed | reference: input RNA pool, higher = stronger binding | bound/input enrichment | 0.0637 ratio
PhoQ, residues 284 288 289 292 302 303 NLALSC | PhoP, residues 12 14 15 18 19 FWNTL (Escherichia coli, UniProt P23836) | Sort-seq, item: YFP reporter | E. coli | PhoQ-PhoP variant library, together with: 10 µM Mg2+ | reference: high Mg2+ state, higher = stronger signaling | fold induction | 2.49
GGGAGUUCUACAGUCCGACGAUCUUUCUACUGCAGCAAACCAUGCUACGAAUUAAGGAUCCUAAGAAGUCCCUGGAUUUUUAUACGAGGGUUCUUGGACUGACCCUCCUGCAAAAAUGUGACUUCCCUGCUAUGAAGUUCUCGCAACAGAGGAUUGAGCAUCA | UNK zinc fingers 1-6, GST-SBP tag | RNA Bind-n-Seq | RNA, in vitro | not given, RNA with constant flanks, human-mouse chimeric sites, ends assumed | reference: input RNA pool, higher = stronger binding | bound/input enrichment | 0.211 ratio
GGGAGUUCUACAGUCCGACGAUCGAAAAUGGCUUCUGCUCCAUUAAAAAGUAAAAAUUGUCCUCCAAAUAUAAAACUCCUUAACCGAUAUUUUUGAAAUUAAAAUCUUUAAAUUUUAUAAAUCAGCUGUUGCCACUACACAACCAACAGAGGAUUGAGCAUCA | RING finger protein unkempt homolog, zinc fingers 1-6, SBP tag (UNK, Homo sapiens, UniProt Q9C0B0, residues 30-357) | RNA Bind-n-Seq | RNA, in vitro | 100 nM, RNA with constant flanks, ends assumed | reference: input RNA pool, higher = stronger binding | bound/input enrichment | 0.694 ratio
GGGAGUUCUACAGUCCGACGAUCGUGACUGGUGUUAAGAUUUCCCCUCAGCAAAGAAGUGCAGUAGUCACCAUAAUUCCAUCUAUAGUGAGUGCCAGUCAGAUUGUGGAGCUGGUUCCAGACCUCAGUUUAGACAUGGGAACUCAACAGAGGAUUGAGCAUCA | UNK zinc fingers 1-6, GST-SBP tag | RNA Bind-n-Seq | RNA, in vitro | not given, RNA with constant flanks, human-mouse chimeric sites, ends assumed | reference: input RNA pool, higher = stronger binding | bound/input enrichment | 0.408 ratio

For quick reference, copied from above (series 1):
Sequence | E-score
GCTCCAAC | 0.106
CTAACGGC | 0.0725
